Measured values of several laboratories.
Parts stem from different laboratories: compare values within a part only.

Sample 1 — method: protein-binding microarray; molecule type: double-stranded DNA, one strand shown; matrix: in vitro; tested at: 2540 nM top; setting: 60-bp whole probe; together with: salmon DNA 0.4 mg/ml; relative to: random background probes; reading: higher = stronger binding; all sequences stand within: GCCTAGCAC … GTCTTGATTCGCTTGACGCTGCTG
Target: Interferon regulatory factor 3, full length, phosphomimetic (IRF3, Homo sapiens, UniProt Q14653, residues 1-427, S386D/S396D/S398D/S402D/T404D/S405D)
Residues (chain): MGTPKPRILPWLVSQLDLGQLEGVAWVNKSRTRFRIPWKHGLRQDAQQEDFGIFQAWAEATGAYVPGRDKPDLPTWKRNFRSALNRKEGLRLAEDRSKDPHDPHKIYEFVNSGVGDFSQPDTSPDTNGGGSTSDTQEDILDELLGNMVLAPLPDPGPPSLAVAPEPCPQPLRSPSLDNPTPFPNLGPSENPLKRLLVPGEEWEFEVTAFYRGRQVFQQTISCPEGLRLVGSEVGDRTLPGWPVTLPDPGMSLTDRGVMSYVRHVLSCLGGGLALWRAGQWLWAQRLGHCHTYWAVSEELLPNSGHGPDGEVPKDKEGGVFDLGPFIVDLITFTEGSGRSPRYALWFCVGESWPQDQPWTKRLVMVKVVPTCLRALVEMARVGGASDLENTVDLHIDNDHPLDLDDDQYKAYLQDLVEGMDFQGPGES
Oligonucleotide	fitted relative affinity
TTAGGTATCGGACTCGGTTAGTGCTAG	2.8 z-score
GACGGTATCGGTTTCGGGAGGTGCTAG	6.86 z-score
TGGGGCTGTATCATCTGAAGGTGCTAG	-0.293 z-score
GACGGACTGGACAATGGGGACGTGCTA	-0.636 z-score
TGTGTCCTGGCTTTGACTCTGTGCTAG	-0.552 z-score
GACGGACTAGGACTGGGGACGTGCTAG	-0.575 z-score
GACGGTTCCCTTTTGCTGACGTGCTAG	5.59 z-score
TCAGAATTTACTTTCTAACTGTGCTAG	1.71 z-score
CACCTTCTTCATCAAGGACAGTGCTAG	2.03 z-score
GACGGTATCGAATTTCGGGACGTGCTA	1.69 z-score
CCTAGTTGTACTTTCTATCTGTGCTAG	2.47 z-score
TTAGATCTCAGTAGCGATTAGTGCTAG	-0.18 z-score
GACGATATCGGGTATAGAGACGTGCTA	0.0899 z-score
TGAGATCTCAGTTTCGATTAGTGCTAG	3.53 z-score
TTAGGTTTCCTTTTCCTTAAGTGCTAG	11.9 z-score
TTTGGTCTCGGTATCGGTTAGTGCTAG	2.56 z-score
TTAGGTGTCGACTTTCGGTTAGTGCTA	2.24 z-score
GAAGGTTTCGGGACTGGGGACGTGCTA	4.02 z-score
TCAAAATGATTGGTTGAACTGTGCTAG	-0.316 z-score
TTGTTTTTCATTATTGTCTTGTGCTAG	1.73 z-score
TTAGGACTGGTACTGCTTTAGTGCTAG	-0.553 z-score
TTAGGTTTCGGCTCCGGTTAGTGCTAG	2.97 z-score
TTAGGTATCGGGTTTAGGTTAGTGCTA	1.96 z-score
GACGGACTGCTAATCCTGACGTGCTAG	-0.482 z-score
TTCGGTTTCGGGACTGGGTTAGTGCTA	5.34 z-score

Sample 2 — method: protein binding microarray; molecule type: double-stranded DNA, one strand shown; matrix: in vitro; tested at: not given; relative to: not given; reading: higher = stronger binding
Target: Histone acetyltransferase KAT6A, both winged helices, GST fusion (KAT6A, Homo sapiens, UniProt Q92794, residues 1-181)
Setting: 8-mer, flanks averaged, mean of 2 arrays, mostly near background
Residues (chain): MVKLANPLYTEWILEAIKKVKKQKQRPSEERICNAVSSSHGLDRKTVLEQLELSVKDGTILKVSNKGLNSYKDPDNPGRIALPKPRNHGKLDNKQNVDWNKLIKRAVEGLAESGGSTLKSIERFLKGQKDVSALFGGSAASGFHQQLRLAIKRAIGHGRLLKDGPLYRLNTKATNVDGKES
Oligonucleotide	E-score
GCTGGAAA	-0.0122
CATTAGGC	-0.105
CCCAAAAG	-0.0858
AGACACAA	-0.15
ATACGCGA	0.2
GGCTGCAA	0.107
GGCTCGAC	0.0597
AGTAGGTC	-0.0398
ATCATGCA	-0.108
ACCGAGTA	0.131
CGGGGGTA	0.0478
CCACACTA	-0.152
AATGATGA	-0.0712
AATTTAGC	-0.0825
CAGAATTA	0.0514
AGCTCGAA	-0.025
ATACTTCA	-0.152

Sample 3 — method: RNAcompete; molecule type: RNA; matrix: in vitro; tested at: 20 nM; setting: 7-mer, probes averaged, single round; relative to: mean of 7-mers; reading: higher = stronger binding
Target: PABPC1L2, full length, GST fusion (mouse, UniProt A0ABA7IW68)
Oligonucleotide	7-mer Z-score
CGCAGCU	-0.18
GAAGUUU	-0.295
AGGUGUA	0.135
GAAUGUA	-0.0989
AGAAUUU	-0.338
CGAUUAU	-0.255
UUGCCAU	-0.233
AUGGCAU	0.0424
AGGCGUC	-0.186
CAUCGGA	0.0678
AUCACCC	-0.313
GAAGCCG	-0.19
AUACUUA	-0.121
UUAGAGA	0.106
GGGUACC	-0.115
AUGAGGU	-0.0101
GUGAGUA	-0.244
AGUGUAU	-0.0718
UAAAAGC	1.39
ACUUGGC	0.0895
GCUCGAU	-0.175

Sample 4 — method: RNA Bind-n-Seq; molecule type: RNA; matrix: in vitro; tested at: 20 nM; setting: 6-mer, flanks averaged, single round; together with: 150 mM KCl; relative to: input library; reading: higher = stronger binding
Target: TAR DNA-binding protein 43, full length, His tag (TARDBP, Homo sapiens, UniProt Q13148, residues 1-414)
Oligonucleotide	6-mer enrichment (R)
CCCCGA	0.685
GGAAUG	1.8
AGUGAC	0.815
CCUAGA	0.65
AUAGUA	0.669
UGAUCA	0.613
UUGACG	0.797
UUAGAC	0.607
ACCGGG	2
GUUAGC	0.785
CACUCG	0.631
UGGCGA	1.41

Sample 5 — method: RNA Bind-n-Seq; molecule type: RNA; matrix: in vitro; tested at: 200 nM; setting: whole 134-nt RNA, ends assumed; together with: 150 mM KCl; relative to: input library; reading: higher = stronger binding
Target: Fragile X messenger ribonucleoprotein 1, C-terminal low-complexity region (Fmr1, Mus musculus, UniProt P35922)
All sequences stand within: GGGAGUUCUACAGUCCGACGAUC … UGGAAUUCUCGGGUGUCAAGG
Oligonucleotide	log2 enrichment
UGGCCCUGGUGGCAUGCGGGGAGGAAGAGGUGGCCUCAUGGAUCGUGGUGGUCCCGGUGGAAUGUUCACAGGUGGCCGUGGUGGAGACAG	-0.0661
GCAGGAAGUAAAAACAAAAAAAAAUGCUUCGGAUAGUGGCAGGGGUGGGGGUUGCUAAGGAAAGGGUGGGAUGGGAGUGGGUAAAGAGUU	0.346
CUGUGCUACACAUCGUAUGUACCGAAUCGGGGAAAAAAAGGAAAAAAAGGGGAAAAAAAGGGAAAGUAUUAUGUUACGCCGUUCGGAUCU	-0.281
UUCCGCCUCUUUCCGGAGUACAAGAACAACAAACUUUUCCUGACCGGGGAGAGCUAUGCUGGCAUCUACAUCCCCACCCUGGCCGUGCUG	0.526
CCUGUGCUACACAUCGUAUGUACCGAAUCGGGGUUUUUUUGGGGUUUGGGGUUUUUGGGGAAAGUAUUAUGUUACGCCGUUCGGAUCUGC	0.499
UAACUUUAGAGGAGGAUCUGAUGGAUAUGGCAGUGGACGGGGAUUUGGGGAUGGCUAUAAUGGGUAUGGAGGAGGACCUGGAGGUGGCAA	0.381
AGUCCUGUGCUACACAUCGUAUGUACCGAAUCAAAUUUUUAAAUUUUUAAACCCAAAAAAGUAUUAUGUUACGCCGUUCGGAUCUGCACU	0.145
CAAGUCCUGUGCUACACAUCGUAUGUACCGAAUCGGGGAAGGGGAAGGGAAGGGGAAAGUAUUAUGUUACGCCGUUCGGAUCUGCACUUC	0.782
UCCUCAAGUCCUGUGCUACACAUCGUAUGUACCGAAUCGGCGGGGCGGCGGAAAGUAUUAUGUUACGCCGUUCGGAUCUGCACUUCCAGC	-0.163
UCAAGUCCUGUGCUACACAUCGUAUGUACCGAAUCGGUUUUUGGAAAGGAAAGGAAAGUAUUAUGUUACGCCGUUCGGAUCUGCACUUCC	-0.54

Excerpt of the above (sample 1):
Oligonucleotide	fitted relative affinity
CCTAGTTGTACTTTCTATCTGTGCTAG	2.47 z-score
TTAGATCTCAGTAGCGATTAGTGCTAG	-0.18 z-score
GACGATATCGGGTATAGAGACGTGCTA	0.0899 z-score
TGAGATCTCAGTTTCGATTAGTGCTAG	3.53 z-score
TTAGGTTTCCTTTTCCTTAAGTGCTAG	11.9 z-score
TTTGGTCTCGGTATCGGTTAGTGCTAG	2.56 z-score
